Experimental data collected from several papers.
Compare with care: the assays were run in different laboratories. Numbers after ± are the reported error.

Compound | tested at | time | quantity | value
CC1OC(OC2C(c3c(O)cc(O)c4c(=O)cc(-c5ccc(O)cc5)oc34)OC(CO)C(O)C2O)C(O)C(O)C1O (stereo not drawn) | – | – | DPPH scavenging, TEAC | 169 ± 1.8 µM TE/mM
Cc1ncc([N+](=O)[O-])n1CCOCc1nnc(SCC(=O)c2ccc(Cl)cc2)o1 | 100 µg/mL | 45 min | DPPH scavenging | 38.1 ± 1.72%
O=C(CN1CCC(O)CC1)Nc1nccs1 | 0.1 mM | 20 min | DPPH radical scavenging | 25.4%
N#C/C(=C\c1cn(-c2ccccc2)nc1-c1ccc(F)cc1)c1nc2ccccc2[nH]1 | 100 µg/mL | 45 min | DPPH radical scavenging | 54.2 ± 1.27%
CCCCCCCCCCCCCCc1sc(NC(=O)CCN2CCC(O)CC2)nc1-c1ccccc1 | 0.1 mM | 1 h | DPPH radical scavenging | 17.7%
N#C/C(=C\c1cn(-c2ccccc2)nc1-c1cccc(Br)c1)c1nc2ccccc2[nH]1 | 100 µg/mL | 45 min | DPPH radical scavenging | 50.9 ± 1.34%
CCCCCCCCCCCCCCc1sc(NC(=O)CN2CCC(O)CC2)nc1-c1ccccc1 | 0.1 mM | 20 min | DPPH radical scavenging | 15.6%
CCCCSc1nnc(-c2ccc(N)cc2)o1 | half IC50 | – | DPPH radical scavenging | 35.2%
Cc1ncc([N+](=O)[O-])n1CCOCc1nnc(SCC(=O)c2ccc(F)cc2)o1 | 100 µg/mL | 45 min | DPPH scavenging | 67.21 ± 0.29%

Some of these lines once more:
Compound | tested at | time | quantity | value
CCCCCCCCCCCCCCc1sc(NC(=O)CN2CCC(O)CC2)nc1-c1ccccc1 | 0.1 mM | 20 min | DPPH radical scavenging | 15.6%
